Published values pooled from the literature.
Parts stem from different laboratories: compare values within a part only.

Sample 1
Target: RING finger protein unkempt homolog, zinc fingers 1-6, SBP tag (UNK, Homo sapiens, UniProt Q9C0B0, residues 30-357)
Sequence of UniProt Q9C0B0 (30-357, looked up): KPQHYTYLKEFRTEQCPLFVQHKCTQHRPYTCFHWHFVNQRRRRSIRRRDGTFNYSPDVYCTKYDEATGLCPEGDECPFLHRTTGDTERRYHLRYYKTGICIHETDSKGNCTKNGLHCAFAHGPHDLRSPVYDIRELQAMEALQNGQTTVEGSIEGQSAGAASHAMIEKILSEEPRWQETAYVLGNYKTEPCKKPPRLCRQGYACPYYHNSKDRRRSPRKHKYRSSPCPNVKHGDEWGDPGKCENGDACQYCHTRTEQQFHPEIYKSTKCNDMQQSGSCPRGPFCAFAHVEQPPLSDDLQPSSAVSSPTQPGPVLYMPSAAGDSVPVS
Method: RNA Bind-n-Seq
Molecule type: RNA
Sample: in vitro
Tested at: 100 nM
Setting: RNA with constant flanks, vertebrate orthologous sites, ends assumed
Baseline: input RNA pool
Direction: higher = stronger binding
| Strand | bound/input enrichment [ratio] |
| --- | --- |
| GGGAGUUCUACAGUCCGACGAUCAGCAACCCAAGGAUUCAGGACUGGUUUUACAAAUAUACCAAGUAGAUAUGGAACUAACAAUAGAAUUGGACAACCAAGACCAUGAUGUACUGUAAUUUAAUUUAUUUUUAUGAGGAAUAUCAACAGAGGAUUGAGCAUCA | 0.765 |
| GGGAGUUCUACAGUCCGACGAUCAAUCAUUUUUUAAUUUUAUGUAUACAUGGUCUAGUCAUGUGUUUUCUUACAGUUUGUCUAUUUGUCUGUACAUCUGUCUGUCAUGUUUCCUUCUCAGGCGAAGGGCUAGAGUUUUACAAACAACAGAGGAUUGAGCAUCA | 1.24 |
| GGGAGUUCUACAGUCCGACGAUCGGCACGCCCAGUUGGUCCUCUCGCAGCAAAGGAUUUCAAUUGCUUUUUUUACAACUUUUUUUGAAGUUGCUGCUGCUCUUAACCAUGAUGGUCAGGACACCGCCAAUCCCAGGGGAGAAACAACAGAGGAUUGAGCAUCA | 0.522 |
| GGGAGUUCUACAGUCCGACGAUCCCCCUGCCCUGAUUUUAAAAGUCCUUAUACCUUUUUUCCUUUUUUUUUUUUUUUUUAAAGGGAUAUGUAGUAAUGUUAGCAGAAAGAUUUAAUUUGGGCAACUUUGAUUCCUAAAGAGAACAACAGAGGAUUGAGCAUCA | 0.254 |
| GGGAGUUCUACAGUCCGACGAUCGAAAAUCACGGCCGCUUUUACCUGCCUCAGUGAGGUAACGUCUCCCCUGACGUUUUAGAGCGCAUCACACAUGUCUUUCCACAUUUCAUCUCUUUACACUUACACUCAUCUUCAAAAAGGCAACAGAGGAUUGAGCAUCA | 0.586 |
| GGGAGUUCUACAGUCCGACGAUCGUUGUGACCCAUUUAACAUACACAAAAAACUAGCCAAAAAAAAUUUGCAUGUAAUUGACUUAGAUGAUGCCACUUUUCUGAGUGCAAAAUUUGGAAGACAGCUUGUACCUGGUUGGAAGCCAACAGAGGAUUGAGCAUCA | 1.48 |
| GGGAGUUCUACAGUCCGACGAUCAUAAUCACUCUAAUUGUAAUCUGAAGGAAGUGUAACAUUGUGUAGCCUUUUUGUAUAAAAUAGACAAAUAGAAAUGGUCCAAUUAGUUUCCUUUUUAAUAUGCUUAAAAUAAGCAGGUGGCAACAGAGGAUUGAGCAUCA | 1.56 |
| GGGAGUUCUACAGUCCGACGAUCUUACAGUCAUUGAUGGACUCUAUUUUUUUAUUAUUACUUGGACCUUGGUCGUUUUUAUACUAGCAAUGAAAAUGUCUUGUUUUAAUUUGUUUUUUGGGGUGGGGGUGGGCAAUGUCUUGCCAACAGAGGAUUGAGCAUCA | 0.996 |
| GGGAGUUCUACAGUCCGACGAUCGAUCUGGACCUUGGAGCUGAACCAGAGAGCUAGCAAAAGUAAGGCAGACUUGUAAAAUUAUAGCCAUGUACAGCUGCACAACAACAGUCCUACCACUAGCAGCUGCAUUAAAGUAUUUAUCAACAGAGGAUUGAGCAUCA | 0.554 |
| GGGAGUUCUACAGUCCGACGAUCCAUUGAACCCUGCUGUAUAAUAAACAAUCUUAGACAUUUAUCAACUGUUGAUACAAAUGUUAGUCCCUAACCACUUUUUAUAUGUUUUAAAUUUUUGAAAUUCAAGUGUACCUGCCAUAACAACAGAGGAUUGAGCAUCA | 2.43 |
| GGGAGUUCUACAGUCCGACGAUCUCCGAGCACUUUGAUAAAAAGCGUGGACUGGUUGCUUGUAUUUUCCUUAUUCUUUUUAAUUAGUUUUAUUAUGUAUGCUACCGUUCGAACUGAGAGUAUUCGGUGGCUAAUUCCAGGACACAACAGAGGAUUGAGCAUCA | 6.78 |

Sample 2
Target: RNA binding protein fox-1 homolog 2, RRM domain, GST-SBP tag (RBFOX2, Homo sapiens, UniProt O43251-10, residues 100-194)
Method: RNA Bind-n-Seq
Molecule type: RNA
Sample: in vitro
Tested at: 365 nM
Setting: natural RNA segment, single round, ends assumed
Baseline: no-protein control
Direction: higher = stronger binding
Target sequence (chain): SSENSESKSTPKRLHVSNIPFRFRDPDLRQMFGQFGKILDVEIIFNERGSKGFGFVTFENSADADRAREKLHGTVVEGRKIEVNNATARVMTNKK
| Strand | RBNS enrichment (R) |
| --- | --- |
| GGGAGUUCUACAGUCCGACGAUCACAUGAAGUGCAAUAAGCUUAUAAAGCUAAGUAGUUAUUAAUAUUUCUAUUAACAUGAUACAAAGGAUGAUGAUUGUAAGUGUUUACUGACUGGCAGCUUUUAUUUCAGUUGGAAUUCUCGGGUGCCAA | 0.5 |
| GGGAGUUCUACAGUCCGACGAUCAGCAGUUAUCAAUAAUUCCCACCCAGGAAACUUUUAUUUAUUGUUUUUUAAAGAUAAAACUGCACAGAUGGGAGUGAGAGAUUUACCUCUGCUCCUUCCUCCUUCAGUGCUGGAAUUCUCGGGUGCCAA | 0.543 |
| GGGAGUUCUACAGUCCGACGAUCUCAGUGUUAGCCCAAAGAUUCUGAGGUUUAGAAAAAAAUUAUGUAAGAUCUGAACAUCAGUUUGCAGACAAAAUUAAAUUAGAGCUUUAUUUUAUUUGGAGAAGAGGGAUUGGAAUUCUCGGGUGCCAA | 1.18 |
| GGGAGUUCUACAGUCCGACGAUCUAGGGCACAAGCCAAGUCUUCAUGCCUUUGGGAAACAUCUGUCGGCCUCCCCACUCUGGUGUCUAUGACUGGCUCCUCAUACCACUGUUUUCCUGACUUCCAGCCUUGCCUGGAAUUCUCGGGUGCCAA | 0.207 |
| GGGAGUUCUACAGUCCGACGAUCAGUCUUGUACCUCAGGCAGGCCCAUCUAGAGCUAUUGCUCCUUCCCACAGCAAAGGUAUUGUGGAUGACCCUUAGAAUCCAUUCUCUGGUCUUCUGAAAUACCAAGGGCAUGGAAUUCUCGGGUGCCAA | 0.279 |
| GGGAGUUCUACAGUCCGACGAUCGCGCUUGCGUGGUGGAUCCAACACCAGCCCUGCGUCGUGGGACUUGCCUCAGAUCAGCCUGCGACUGCAAGAUUCUUACUGCAGUAGAGAACUCUUUUUCUCCCUUGUACUGGAAUUCUCGGGUGCCAA | 0.438 |
| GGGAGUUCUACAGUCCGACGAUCAGAACGUGGUUUUGCUUUGCAUUUUGUAGUUCUUCCCGUCAGUGCUGUGUGUAGUCCUGCUUCUUCCAGUCUGCAGUAUUCACUAGAGGCGCCCUUUGCAUGUUGCACUCUGGAAUUCUCGGGUGCCAA | 22.3 |
| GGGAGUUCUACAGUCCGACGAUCAUCUAAUUAACACAGCACAUUGUACUAAUGACUAGGAGUAGCAGCUUUUUCUUCUCUCCCUCUAUGAAUUCUUAUAAUGUCCCUUUUUCUGUAAGUUUUUGAGAGGCAAUUGGAAUUCUCGGGUGCCAA | 1.43 |
| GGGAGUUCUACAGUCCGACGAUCCAUUUAAAGCCAGAUAGGGCACCCUUGCUGUGUCAAUGAGGAAGUUACUGUAAACACAGUGUUCGACUGAAGCUAGAGUGCAGAGUCGCAGCACUGCUGACUGCCUGCCUUGGAAUUCUCGGGUGCCAA | 0.707 |
| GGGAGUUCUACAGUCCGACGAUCUCUGUAGUUAACAGAACACUGUAAUGUGCCUUGGAGCUUAGUAACUUGUAAUAAAUUCAAUUGAUAUAACUGCGCUGAGUCAGCAAUUUUGUCUUUCUAGGGCUAAGGCCUGGAAUUCUCGGGUGCCAA | 0.694 |
| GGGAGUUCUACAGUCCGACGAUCACAUCCUGGGGAAAUCGAGCAGAAAAACUGCACAGUUAUGUCAAAGGGCAAAAGUUUAGAAAUCCACAUACAUUGGUUCUUAGAUCUCUUAGGAAAUCCUGCACCGGUUUUGGAAUUCUCGGGUGCCAA | 0.517 |
| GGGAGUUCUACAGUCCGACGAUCAAUCACAGGAAGUGAAGAACAUUUCAUUUAUCUGUUCUAAAAUUUCUGCUGUCAGAGUGUCUAAGAGACCCAGUUGGGCUGAAAGACAUGCUCUGUGCACAGGCACAGAGUGGAAUUCUCGGGUGCCAA | 0.298 |

Sample 3
Target: Sal-like protein 4, full length isoform A (SALL4, Homo sapiens, UniProt Q9UJQ4, residues 1-1053)
Sequence of UniProt Q9UJQ4 (whole entry, looked up): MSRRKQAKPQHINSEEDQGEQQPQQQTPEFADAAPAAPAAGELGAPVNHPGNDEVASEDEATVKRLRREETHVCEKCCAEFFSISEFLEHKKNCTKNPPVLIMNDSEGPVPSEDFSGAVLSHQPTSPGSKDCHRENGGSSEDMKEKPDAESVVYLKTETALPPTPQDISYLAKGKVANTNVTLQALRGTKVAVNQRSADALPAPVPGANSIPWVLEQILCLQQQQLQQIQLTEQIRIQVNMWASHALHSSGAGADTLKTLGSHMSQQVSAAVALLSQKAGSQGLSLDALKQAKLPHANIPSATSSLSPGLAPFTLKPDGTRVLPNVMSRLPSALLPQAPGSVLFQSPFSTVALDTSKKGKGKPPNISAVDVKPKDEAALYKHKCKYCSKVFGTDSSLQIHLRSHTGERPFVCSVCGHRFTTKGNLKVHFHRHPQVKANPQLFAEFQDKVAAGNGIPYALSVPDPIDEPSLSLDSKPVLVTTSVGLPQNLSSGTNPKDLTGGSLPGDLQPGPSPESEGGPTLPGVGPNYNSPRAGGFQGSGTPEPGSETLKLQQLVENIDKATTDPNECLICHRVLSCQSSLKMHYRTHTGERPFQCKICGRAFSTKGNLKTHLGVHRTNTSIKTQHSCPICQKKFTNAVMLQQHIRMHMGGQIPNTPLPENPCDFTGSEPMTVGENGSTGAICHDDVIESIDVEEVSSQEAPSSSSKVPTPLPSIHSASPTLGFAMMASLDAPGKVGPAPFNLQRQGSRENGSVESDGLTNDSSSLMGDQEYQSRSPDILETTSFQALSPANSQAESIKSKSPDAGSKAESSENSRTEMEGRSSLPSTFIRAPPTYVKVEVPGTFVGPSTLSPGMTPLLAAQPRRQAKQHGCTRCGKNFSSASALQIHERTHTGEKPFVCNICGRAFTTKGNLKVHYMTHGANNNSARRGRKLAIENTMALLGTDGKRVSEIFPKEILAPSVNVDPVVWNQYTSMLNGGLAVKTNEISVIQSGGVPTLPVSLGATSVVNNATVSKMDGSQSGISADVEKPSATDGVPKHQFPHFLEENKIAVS
Method: universal PBM
Molecule type: double-stranded DNA, one strand shown
Sample: in vitro
Tested at: 600 nM
Setting: 8-mer, flanks averaged, mean of replicates
Direction: higher = stronger binding
| Strand | E-score |
| --- | --- |
| CGAACGGA | -0.123 |
| AACTCAAA | 0.177 |
| GGTGGCAC | -0.336 |
| ACCGTTGG | -0.252 |
| CGCCCATA | -0.13 |
| ATGCTTAC | 0.054 |
| TAGATGGA | -0.0149 |
| AACAGCTT | -0.086 |
| CGTCCCGA | -0.156 |
| AATACCGG | -0.0574 |
| GCTGGTCC | -0.263 |
| CAAGTCTA | 0.167 |
| GGAAGAGA | 0.0401 |
| CCCGGGCC | -0.46 |
| GGCGTCTA | -0.123 |
| CGTTGTTC | -0.0267 |

Sample 4
Target: Interferon regulatory factor 5, full length, phosphomimetic (IRF5, Homo sapiens, UniProt Q13568-2, residues 1-514, S451D/S453D/S456D/S462D)
Method: protein-binding microarray
Molecule type: double-stranded DNA, one strand shown
Sample: in vitro
Tested at: 940 nM top
Setting: 60-bp whole probe
With: salmon DNA 0.4 mg/ml
Baseline: random background probes
Direction: higher = stronger binding
Shared flanks, not repeated: GCCTAGCAC … GTCTTGATTCGCTTGACGCTGCTG
| Strand | fitted relative affinity [z-score] |
| --- | --- |
| CAGAGCCTCAGGCCTCACACAGTGCTA | -0.706 |
| TGCTTTCTCTTTCATTGCTGCGTGCTA | 3.18 |
| TCAGTCCTCTCTCTATTACTGTGCTAG | 1.38 |
| GACGGTTTCGGTTCCGGGGCGTGCTAG | 14.2 |
| GACGATCTCAGTCTCGATACGTGCTAG | 3 |
| TCAAGTTTTGAGCTCTGACTGTGCTAG | -0.446 |
| GACTTTTTACCTGTGGTGTAGTGCTAG | -0.066 |
| GCCGGTCTCGGACTGGGGACGTGCTAG | 1.23 |
| GACGGTCCCGGTCTCGGGACGTGCTAG | 0.595 |
| TTAGGTATGGGTTTCGGTTAGTGCTAG | 6.7 |
| TGCACTCTTTACATGGGTTTGTGCTAG | 0.336 |
| GACGGTTTCGGGTTCGGGACGTGCTAG | 8.97 |
| TTAGACTTCAGTATCGATTAGTGCTAG | 4.71 |
| GTGGCTCACACCTGTCATCCCGTGCTA | -0.523 |
| TCAGGTCTCGCTATGTTACTGTGCTAG | 1.49 |
| TTAGGTATGGGGTATCGGTTAGTGCTA | 2.69 |

Single results of other studies
| Molecule | target | test | system | setting | how to read | measurement | value |
| --- | --- | --- | --- | --- | --- | --- | --- |
| PhoQ, residues 284 288 289 292 302 303 SLANKL | PhoP, residues 12 14 15 18 19 LWHSL (Escherichia coli, UniProt P23836) | Sort-seq, measured: YFP reporter | E. coli | PhoQ-PhoP variant library, with: 10 µM Mg2+ | baseline: high Mg2+ state, higher = stronger signaling | fold induction | 5.95 |

A few entries again (sample 1):
| Strand | bound/input enrichment [ratio] |
| --- | --- |
| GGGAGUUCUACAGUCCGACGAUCGAUCUGGACCUUGGAGCUGAACCAGAGAGCUAGCAAAAGUAAGGCAGACUUGUAAAAUUAUAGCCAUGUACAGCUGCACAACAACAGUCCUACCACUAGCAGCUGCAUUAAAGUAUUUAUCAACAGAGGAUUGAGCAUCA | 0.554 |
| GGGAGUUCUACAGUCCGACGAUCUCCGAGCACUUUGAUAAAAAGCGUGGACUGGUUGCUUGUAUUUUCCUUAUUCUUUUUAAUUAGUUUUAUUAUGUAUGCUACCGUUCGAACUGAGAGUAUUCGGUGGCUAAUUCCAGGACACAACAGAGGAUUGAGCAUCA | 6.78 |
| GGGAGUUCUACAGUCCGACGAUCGGCACGCCCAGUUGGUCCUCUCGCAGCAAAGGAUUUCAAUUGCUUUUUUUACAACUUUUUUUGAAGUUGCUGCUGCUCUUAACCAUGAUGGUCAGGACACCGCCAAUCCCAGGGGAGAAACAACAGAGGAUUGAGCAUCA | 0.522 |
| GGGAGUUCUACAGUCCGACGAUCUUACAGUCAUUGAUGGACUCUAUUUUUUUAUUAUUACUUGGACCUUGGUCGUUUUUAUACUAGCAAUGAAAAUGUCUUGUUUUAAUUUGUUUUUUGGGGUGGGGGUGGGCAAUGUCUUGCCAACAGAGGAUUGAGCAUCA | 0.996 |
| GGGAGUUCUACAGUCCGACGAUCCCCCUGCCCUGAUUUUAAAAGUCCUUAUACCUUUUUUCCUUUUUUUUUUUUUUUUUAAAGGGAUAUGUAGUAAUGUUAGCAGAAAGAUUUAAUUUGGGCAACUUUGAUUCCUAAAGAGAACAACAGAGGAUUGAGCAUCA | 0.254 |
